# Results collected from several papers.
# A part holds a random share of what one study measured. Changes are numbered by the printed parent chain.

# Set 1 — technique: protein-binding microarray; molecule type: double-stranded DNA, one strand shown; matrix: in vitro; concentration: 2540 nM top; notes: 60-bp whole probe; added: salmon DNA 0.4 mg/ml; baseline: random background probes; direction: higher = stronger binding; constant ends, left off below: GCCTAGCAC … GTCTTGATTCGCTTGACGCTGCTG
# Target: Interferon regulatory factor 3, full length, phosphomimetic (IRF3, Homo sapiens, UniProt Q14653, residues 1-427, S386D/S396D/S398D/S402D/T404D/S405D)
# Construct (chain): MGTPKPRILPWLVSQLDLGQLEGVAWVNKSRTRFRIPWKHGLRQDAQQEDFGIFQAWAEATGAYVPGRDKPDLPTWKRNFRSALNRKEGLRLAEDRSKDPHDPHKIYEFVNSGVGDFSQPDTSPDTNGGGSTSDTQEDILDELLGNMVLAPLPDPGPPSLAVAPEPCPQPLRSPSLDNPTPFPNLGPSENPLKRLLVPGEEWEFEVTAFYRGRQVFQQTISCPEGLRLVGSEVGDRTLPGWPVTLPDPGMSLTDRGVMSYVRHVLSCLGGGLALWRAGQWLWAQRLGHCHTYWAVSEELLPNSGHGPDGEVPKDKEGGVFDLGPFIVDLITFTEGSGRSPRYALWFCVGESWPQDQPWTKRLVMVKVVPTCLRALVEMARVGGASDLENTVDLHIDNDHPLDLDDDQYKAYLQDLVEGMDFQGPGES
Strand,fitted relative affinity
GACGGTATCGGCTTCGGGACGTGCTAG,1.27 z-score
ATTTTTTTCATTATTGTTTCGTGCTAG,1.77 z-score
GCCGATTCCAGTTTCGAGACGTGCTAG,3.96 z-score
TTAGATTTCAGTATAGATTAGTGCTAG,1.41 z-score
TGCTTTTTAGAAATTTTTTTTGTGCTA,0.227 z-score
GATGATATCGGGTATCGAGACGTGCTA,-0.119 z-score
TTAGGACTGCTTCTCCTTTTGTGCTAG,0.44 z-score
TCAGGTATCCTTTTCCTTTAGTGCTAG,8.64 z-score
GACGAACTGGGGGATCGAGACGTGCTA,-0.153 z-score
TCAGTTCCCTATTTAAGACTGTGCTAG,4.53 z-score
TTAGAACTGGGAACTGGATTAGTGCTA,-0.409 z-score
TGAGGTATCGGGACTGGGTTAGTGCTA,0.735 z-score
TTAGATTTCAGTTTCGATGAGTGCTAG,4.95 z-score
TTACCCCATCCCCCTTTTCTGTGCTAG,1.72 z-score
GACTGTTTCGGTTTCGGGACGTGCTAG,10.2 z-score
GACGATTTAAGTATCGAGACGTGCTAG,0.955 z-score
TCAAGGGTCTGTTTGGGACTGTGCTAG,-0.41 z-score
GACGATATCAGTTTTGAGACGTGCTAG,1.65 z-score
GACGATACCAGACTGGAGACGTGCTAG,0.218 z-score
TTAGATCTTAGACTGGATTAGTGCTAG,-0.345 z-score
TCAGCTTCCATTTTCTGACTGTGCTAG,2.66 z-score
GAATTTCCCACTTTCACTTCGTGCTAG,3.99 z-score
TTAGATATCAGTATCGCTTAGTGCTAG,1.6 z-score
ATAGATATCGGGACTGGATTAGTGCTA,-0.0562 z-score
TCATATATCATTTAATTACTGTGCTAG,1.03 z-score

# Set 2 — technique: protein binding microarray; molecule type: double-stranded DNA, one strand shown; matrix: in vitro; concentration: not given; baseline: not given; direction: higher = stronger binding
# Target: Histone acetyltransferase KAT6A, both winged helices, GST fusion (KAT6A, Homo sapiens, UniProt Q92794, residues 1-181)
# Notes: 8-mer, flanks averaged, mean of 2 arrays, mostly near background
# Residues (chain): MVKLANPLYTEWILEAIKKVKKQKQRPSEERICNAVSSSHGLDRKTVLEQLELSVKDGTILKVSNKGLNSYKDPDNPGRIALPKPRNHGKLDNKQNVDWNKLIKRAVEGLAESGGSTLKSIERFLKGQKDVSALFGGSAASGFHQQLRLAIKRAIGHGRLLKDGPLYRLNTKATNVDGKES
Strand,E-score
AATCGTGC,0.0758
GAACCACA,-0.12
AGCAGGAT,-0.28
ACCTAGGT,-0.136
ACAGGCTA,-0.248
AGCGGAAA,0.205
CTCTTACA,-0.214
GAGATTAA,-0.0175
AAGGCGGT,0.0355
AATTCTAC,-0.103
CAATTAAA,-0.112
CACAGTCC,0.0511
CCCATCTC,-0.163
ACAGTTAC,0.00182
ATGCGTTA,0.0466
ACCGTGGC,0.0171
TATTATGA,0.0386
AAGCCGCT,0.273
AACCTCGC,0.0816
GGTTCGAC,-0.0882
AGAGAGGA,-0.179
AAGCACTC,-0.0237
AGTGGGAG,-0.261
ATCCTCAC,-0.13
CGGATTCA,0.0541

# Set 3 — target: CREBZF, bZIP domain (human); technique: DHFR protein complementation; matrix: yeast; baseline: wild-type JUN-FOS pair; direction: higher = stronger binding
# Notes: single substitutions, most at no-binding floor
# Starting sequence: JUN, bZIP domain (human); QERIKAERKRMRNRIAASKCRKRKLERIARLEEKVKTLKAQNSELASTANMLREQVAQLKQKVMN; partner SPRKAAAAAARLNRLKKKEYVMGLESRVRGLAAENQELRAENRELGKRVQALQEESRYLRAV
Substitution,binding fitness
K34Q,-1.43 natural log
E32V,-1.48 natural log
N42H,-1.47 natural log
S43F,-1.51 natural log
S43Q,-1.51 natural log
A29E,-1.47 natural log
L52H,-1.51 natural log
S43G,-1.42 natural log
A46R,-1.54 natural log
N42Q,-1.42 natural log
M51Q,-1.47 natural log
S47V,-1.29 natural log

# Set 4 — technique: protein-binding microarray; molecule type: double-stranded DNA, one strand shown; matrix: in vitro; concentration: 0.8 µM; notes: whole 60-bp probe, no competitor; direction: higher = stronger binding; constant ends, left off below: … GTCTTGATTCGCTTGACGCTGCTG
# Target: Centromere-binding protein 1, full length, N-terminal tag (CBF1, Saccharomyces cerevisiae, UniProt P17106, residues 1-351)
# UniProt P17106, sequence (whole entry, looked up): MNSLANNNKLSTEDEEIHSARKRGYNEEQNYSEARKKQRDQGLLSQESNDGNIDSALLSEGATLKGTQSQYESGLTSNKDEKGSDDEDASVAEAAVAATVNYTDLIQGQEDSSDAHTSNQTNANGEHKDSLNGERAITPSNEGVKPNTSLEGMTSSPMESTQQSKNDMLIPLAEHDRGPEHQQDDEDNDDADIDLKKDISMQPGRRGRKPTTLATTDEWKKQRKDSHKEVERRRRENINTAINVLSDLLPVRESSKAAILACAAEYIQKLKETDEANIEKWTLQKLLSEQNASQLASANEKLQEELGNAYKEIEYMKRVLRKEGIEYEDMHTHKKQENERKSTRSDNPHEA
Strand,fluorescence intensity [a.u.]
GAAGTGAGAACTGATCACCAGAGCCGAAAAAACTAG,547
CTACCAGAGAACCATCATCATGCCTCTCCTCAATTC,507
GAAATGCCCTTATTCCTCATGACAGACTGAAACTAG,577
CTAACATATAATCAAAACGTGAGTTTCCTGTGGTTC,651
CTACGGATGGATTCTCAACTGATATTTATATGGTTC,517
GAAAACAATAAACTCAACGTGTACACTTATGCTTAG,552
CTAGTCAATAGCAAGAGCGTGCGCGAGATCATGTTC,579
CTAAATAACCTCAGTCACCTTGTGCAAGAACTTTTC,531
CCTAACTACTATAAGCACGCAAAATAGCTTCGTACA,510
CCTAACTACTATAACCACGTGAAATAGCTTCGTACA,2810
CTAAAAAATTTTTATCACGTTTCTTTTTCTTGATTC,1910
CTAAATTGTTAAGACATCGTGCGCCTAGCCTACTTC,524
GAAACGTCGAAGCTAAACGTGAGAATTCCCCTGTAG,509
CTAGAGTGACATGATATGGTGATGGTGATGAGATTC,539
CTACTTCTGGATTCTCACGGGATTATCTCGCGTTTC,656
CCTAACTACTATAAACTCATGATATAGCTTCGTACA,533
GAACTTTCATCAATTCACGTTATTTTGCCGCCGTAG,642
CTACATACATGCACGCACATACATGCACGCGCATTC,674

# Set 5 — target: CCND1, cyclin fold, Cln2 fusion (human); technique: yeast growth competition, sequencing; matrix: yeast; notes: weak parent motif; baseline: not given; direction: higher = stronger binding
# Starting sequence: SGO1 docking peptide (human); PLAKRALKYTDEK
Substitution,normalised enrichment score
L7A,-0.0751
K13A,-0.212
P1A,-0.239
K4A,-0.0185
K8A,0.096

# Set 6 — technique: DHFR PCA, deep sequencing; matrix: yeast; added: (+)-ABA 710 µM; baseline: wild-type fitted maximum; direction: higher = stronger binding
# Target: ABI1, truncated, D143A, DHFR fusion (Arabidopsis thaliana)
# Notes: methotrexate growth selection, single substitutions
# Starting sequence: PYL1, truncated, DHFR fusion (Arabidopsis thaliana); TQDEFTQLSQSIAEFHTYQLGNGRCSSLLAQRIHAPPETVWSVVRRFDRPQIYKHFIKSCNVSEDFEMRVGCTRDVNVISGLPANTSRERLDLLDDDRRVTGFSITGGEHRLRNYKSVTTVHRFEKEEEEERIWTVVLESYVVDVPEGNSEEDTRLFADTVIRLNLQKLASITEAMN
Substitution,relative binding score [%]
C72S,101
H122Q,85
L156N,97.7
D97K,117
E38D,99.2
W134G,108
F66T,100
R123H,101
K168L,80.3
S59N,104
A30C,101
G81S,87.8
E130G,109
Y53P,19.5
S26R,93.5
I33V,102

# Single results of other studies
Molecule,target,test,system,setting,scale,quantity,result
"PhoQ, residues 284 288 289 292 302 303 TTCLQL","PhoP, residues 12 14 15 18 19 GQALL (Escherichia coli, UniProt P23836)","Sort-seq, item: YFP reporter",E. coli,"PhoQ-PhoP variant library, added: 10 µM Mg2+","baseline: high Mg2+ state, higher = stronger signaling",fold induction,9.12

# Some of these lines once more (set 1):
Strand,fitted relative affinity
TTAGGACTGCTTCTCCTTTTGTGCTAG,0.44 z-score
TCAGGTATCCTTTTCCTTTAGTGCTAG,8.64 z-score
GACGAACTGGGGGATCGAGACGTGCTA,-0.153 z-score
TCAGTTCCCTATTTAAGACTGTGCTAG,4.53 z-score
TTAGAACTGGGAACTGGATTAGTGCTA,-0.409 z-score
TGAGGTATCGGGACTGGGTTAGTGCTA,0.735 z-score
TTAGATTTCAGTTTCGATGAGTGCTAG,4.95 z-score
TTACCCCATCCCCCTTTTCTGTGCTAG,1.72 z-score
GACTGTTTCGGTTTCGGGACGTGCTAG,10.2 z-score
GACGATTTAAGTATCGAGACGTGCTAG,0.955 z-score
TCAAGGGTCTGTTTGGGACTGTGCTAG,-0.41 z-score
GACGATATCAGTTTTGAGACGTGCTAG,1.65 z-score
GACGATACCAGACTGGAGACGTGCTAG,0.218 z-score
TTAGATCTTAGACTGGATTAGTGCTAG,-0.345 z-score
TCAGCTTCCATTTTCTGACTGTGCTAG,2.66 z-score
